Measured values of several laboratories.
Lines come from different studies, so protocols differ. Values joined by “and” are separate records of one study, mostly repeats; a detail may differ. Numbers after ± are the reported error.

| Compound | tested on | assay | system | setting | how to read | endpoint | result |
| --- | --- | --- | --- | --- | --- | --- | --- |
| Cc1cc2cc(C(=O)N(Cc3ccc(C(F)(F)F)cn3)[C@H](C)c3ncccn3)ccc2nc1N | – | ELISA, item: SDMA | mouse, HCT-116 MTAP-deleted xenograft, tumour | oral, 100 mg/kg once daily, 21 doses, 4 h after last dose | reference: vehicle | inhibition | 89% |
| CN1CCC[C@]1(C)/C=C/S(=O)(=O)NC(=O)Nc1c2c(cc3c1CCC3)CCC2 | – | – | human, whole blood ex vivo | 400 mg single dose, 12 h, single ascending dose, with: LPS and ATP | – | IL-18 inhibition | 79.7% |
| CC(C)C[C@H](NC(=O)CNC(=O)[C@H](CCC(N)=O)NC(=O)[C@H](CC(C)C)NC(=O)[C@H](CC(C)C)NC(=O)[C@H](CCCNC(=N)N)NC(=O)[C@H](CCC(N)=O)NC(=O)[C@H](CC(C)C)NC(=O)[C@H](CCCNC(=N)N)NC(=O)[C@H](C)NC(=O)CNC(=O)[C@H](CCC(=O)O)NC(=O)[C@H](CCCNC(=N)N)NC(=O)[C@H](CC(C)C)NC(=O)[C@H](CCCNC(=N)N)NC(=O)[C@H](CO)NC(=O)[C@H](CC(C)C)NC(=O)[C@H](CCC(=O)O)NC(=O)[C@H](CO)NC(=O)[C@@H](NC(=O)[C@H](Cc1ccccc1)NC(=O)[C@@H](NC(=O)CNC(=O)[C@H](CC(=O)O)NC(=O)C(C)(C)NC(=O)[C@@H](N)Cc1c[nH]cn1)[C@@H](C)O)[C@@H](C)O)C(=O)N[C@@H](CC(C)C)C(=O)N[C@@H](CCC(N)=O)C(=O)NCC(=O)N[C@@H](CC(C)C)C(=O)N[C@H](C(=O)NCC(=O)N[C@@H](CCCCNC(=O)COCCOCCNC(=O)COCCOCCNC(=O)CC[C@H](NC(=O)CCCCCCCCCCCCCCCCC(=O)O)C(=O)O)C(N)=O)C(C)C | – | indirect calorimetry | DIO C57BL/6J mice | sc, 300 nmol/kg twice daily, throughout 8 days | – | energy expenditure | increased |
| COc1ccc(C(=O)CCc2cc(C(CCc3ccc(O)cc3OC)c3ccc(O)cc3)c(O)cc2OC)cc1 (racemic) | – | – | human blood | 0.3 µM, with: A23187 | – | arachidonic acid level | 94300 ± 10600 pg/mL |
| COC1OC(C)C(O)C(OC2OC(C)C(O)C(OS(=O)(=O)O)C2OS(=O)(=O)O)C1OS(=O)(=O)O (stereo not drawn) | – | – | human plasma | 128 µg/mL | reference: control | APTT prolongation | 1.1 fold |
| COc1cc2c(NC3CCN(C(C)C)CC3)cc(N3CCOCC3)nc2cc1OCCCN1CCCC1 | – | TMT proteomics, item: MFGE8 | 5xFAD mouse, hippocampus | dose not given | reference: wild type | log2 fold change | 0.0848 |
| CC(=O)[O-].O.O.O.O.[Ni+2].[O-]c1ccc(Br)cc1C=NCCN1CCOCC1 | – | nitric oxide scavenging | – | 80 µM | – | inhibition | 19.8% |
| CC(=O)n1cc([C@H]2C=C(C(=O)N3CCN(Cc4ccc5c(c4)OCO5)CC3)O[C@@H](OCc3ccc(CO)cc3)C2)c2ccccc21 | Trypanosoma cruzi | reporter mRNA translation, inhibitor, item: Renilla luciferase mRNA | cell-free extract | concentration not given, test 2 | reference: positive over negative control | translation activity | 56.7% |
| COc1ccc(NC(=O)c2ccc3[nH]c(-c4ccc(N(C)C)cc4)nc3c2)cn1 | – | – | Lewis lung carcinoma, mice, syngeneic graft, subcutaneous | intraperitoneal, 50 mg/kg daily, day 10 | – | tumour volume | 51.5 mm3 and 345 mm3 and 565 mm3 and 425 mm3 and 167 mm3 |
| COC1OC(C)C(OC2OC(C)C(OS(=O)(=O)O)C(OC3OC(C)C(OC4OC(C)C(OS(=O)(=O)O)C(OC5OC(C)C(OC6OC(C)C(OS(=O)(=O)O)C(OC7OC(C)C(OC8OC(C)C(OS(=O)(=O)O)C(OC9OC(C)C(OS(=O)(=O)O)C(OS(=O)(=O)O)C9O)C8O)C(OS(=O)(=O)O)C7O)C6O)C(OS(=O)(=O)O)C5O)C4O)C(OS(=O)(=O)O)C3O)C2O)C(OS(=O)(=O)O)C1O (stereo not drawn) | – | – | human plasma | 128 µg/mL | reference: control | APTT prolongation | 1.3 fold |
| COC1CN([C@H]2CC[C@H]([C@@]3(C)Oc4c(Cl)cc(C(=O)NCc5c(SC)cc(C)[nH]c5=O)c(C)c4O3)CC2)C1 | – | RNA-seq, item: mouse JUP homolog | mouse, HT-1376 xenograft, whole blood | dose not given, PRC2 target gene | reference: vehicle | log2 fold change | 0.612 |
| COc1ccc2c(c1)CN(C(=O)CCN1CCC(Cc3ccccc3)CC1)CCS2 | – | – | paroxysmal AF patients | oral, 540 mg, 2 h | – | AF conversion rate | 50% |
| CCN(CC)CCCCCCNc1cc(OC)cc2c(C)ccnc12.Cc1ccc(S(=O)(=O)O)cc1 | Trypanosoma cruzi | reporter mRNA translation, inhibitor, item: Renilla luciferase mRNA | cell-free extract | concentration not given | reference: positive over negative control | translation activity | 101% and 148% |
| C=CC(=O)N1CC2C(=O)N(CCN(C)C)c3c(c4cc(Cl)c(-c5c(O)cccc5F)nc4n(-c4c(C)ccnc4C(C)C)c3=O)N2CC1C (stereo not drawn) | – | ELISA | BALB/c nude mouse, H358 xenograft, tumour | 10 mg/kg | reference: vehicle | active RAS level | decreased |
| O=Cn1nnc2ccccc21 | – | HPLC-MS | – | pH 10.2, with: 50 mM N-α-acetyl-lysine | – | pseudo-first-order rate constant | 0 h⁻¹ |
